Published values pooled from the literature.
Lines come from different studies, so protocols differ. Several values in a cell are separate wells, animals, samples, runs or records. ± marks the error that the study gave.

SMILES = Cc1sc2ncn(CC(=O)N3CCCC3)c(=O)c2c1-c1cccc(Br)c1; target = NMDA receptor, mouse; assay = single-channel current, outside-out patch; system = cortical neurons; conditions = concentration not given, holding -80 mV, added: Ca2+ 0.5 mM; measurement = unitary current amplitude 3; result = -2.27 ± 0.65 pA
SMILES = CN(C)CCCNC(=O)c1cc(NC(=O)c2cc(NC(=O)c3cc(NC(=O)c4nc(NC(=O)[C@H](N)CCNC(=O)c5cc(NC(=O)c6cc(NC(=O)c7nc(NC(=O)c8nccn8C)cn7C)co6)co5)cn4C)cn3C)cn2C)cn1C; target = 12-mer DNA duplex; assay = DNA binding, UV thermal denaturation; conditions = 2.4 µM, pH 7.0, mismatch base pair C·G, added: DNA duplex 2 µM; measurement = melting temperature; result = 69.1 ± 0.3 °C
SMILES = CC(=O)N[C@@H](CC(N)=O)C(=O)NCC(=O)N[C@@H](CCCNC(=N)N)C(=O)N[C@@H](C)C(N)=O; target = Asn-Gly peptide isomerisation to succinimide; assay = 1H NMR time course; conditions = pH 7.4, 37 °C; measurement = rate constant k1; result = 0.0318 h⁻¹
SMILES = C1=[N+]2CCC[N+]3=Cc4ccc5[n]4[Au-]23[n]2c1ccc2-c1nc2ccccc2nc1-5.F[P-](F)(F)(F)(F)F; target = dsDNA fragment human ACTN3 291 bp; assay = DNA melting; conditions = 50 µM; measurement = delta Tm; result = 4.65 °C
SMILES = Cc1cccc(O[C@H]2CCC[C@@H](C(C)CNCc3ccncc3)C2)c1 (relative stereo); target = mitochondrial complex I (mouse); assay = NADH oxidation, inhibitor; system = isolated mouse brain mitochondria; conditions = 1 µM; measurement = reduction of complex I activity; result = ~15%
SMILES = C[N+](C)(CF)CC(=O)O; target = TMA lyase; assay = TMA production, whole-cell; system = Proteus mirabilis, wild type; measurement = EC50; result = 16000 nM
SMILES = Cc1c(OCc2ccccc2)c(=O)ccn1CCCOC(=O)c1ccccc1Cl; target = β-hematin formation; conditions = 200 µg/mL, 24 h, 60 °C; measurement = inhibition; result = 34%
SMILES = CC(CCC(=O)NCc1ccc(C(=O)NCc2ccc(C(=O)NO)cc2)cc1)C1CCC2C3C(O)CC4CC(O)CCC4(C)C3CCC12C (stereo not shown); target = HDAC6; assay = immunoblotting; system = cystic human cholangiocytes; conditions = 2 µM, 24 h; measurement = acetylated α-tubulin level; result = increased
SMILES = CC(C)C[C@H]1NC(=O)[C@@H](CC(C)C)NC(=O)[C@@](C)(NC(=O)[C@@H](CCC(=O)O)NC(=O)[C@@H](Cc2ccc(C(F)(F)F)cc2)NC(=O)[C@@H](CC(N)=O)NC(=O)[C@@]2(C)CCCC=CCCC[C@@](C)(N)C(=O)N[C@H](C)C(=O)N[C@H](Cc3c[nH]c4cc(F)ccc34)C(=O)N[C@H](Cc3ccc(O)cc3)C(=O)N2)CCCC=CCCCCCC[C@](C)(C(N)=O)NC1=O; target = p53; assay = reporter gene, activator; system = HCT-116 p53 reporter; conditions = 16 h, 2% FBS; measurement = EC50; result = 34600 nM
SMILES = CN(C)CCCNC(=O)c1cc(NC(=O)c2cc(NC(=O)c3cc(NC(=O)c4nc(NC(=O)[C@H](N)CCNC(=O)c5cc(NC(=O)c6cc(NC(=O)c7nc(NC(=O)c8nccn8C)cn7C)cn6C)cn5C)cn4C)cn3C)cn2C)cn1C; target = 12-mer DNA duplex; assay = DNA binding, UV thermal denaturation; conditions = 2.4 µM, pH 7.0, match base pair T·A, added: DNA duplex 2 µM; measurement = melting temperature; result = 76.2 ± 2.3 °C
SMILES = O=C(/C=C/c1ccc(O)c(O)c1)OCCCC[P+](c1ccccc1)(c1ccccc1)c1ccccc1; target = glutathione peroxidase, rat; system = rat mitochondria; conditions = 10 µM, 15 and 30 min; measurement = glutathione peroxidase activity; result = increased
SMILES = CCCCC/C=C/C(=O)CCc1ccc(O)c(OC)c1; target = mAb 6-AT6; assay = antibody binding, indirect competitive ELISA; conditions = added: coating antigen 2-OVA; measurement = IC50; result = > 4 µg/mL
SMILES = O=C(/C=C/c1ccc(O)cc1)OCCCC[P+](c1ccccc1)(c1ccccc1)c1ccccc1; target = superoxide dismutase, rat; system = rat mitochondria; conditions = 10 µM, 30 min; measurement = inhibition; result = ≤ 10%
SMILES = Cc1ccc(NC(=O)c2c(C)oc3ccc(O)c(CN4CCCCCC4)c23)cc1; target = MYC Pu27 G-quadruplex DNA; assay = PCR stop; conditions = concentration not given; measurement = PCR amplification inhibition; result = inhibited
SMILES = CN(C)CCCNC(=O)c1cc(NC(=O)c2cc(NC(=O)c3cc(NC(=O)c4nc(NC(=O)[C@H](N)CCNC(=O)c5cc(NC(=O)c6cc(NC(=O)c7nc(NC(=O)c8nccn8C)cn7C)cn6C)co5)cn4C)cn3C)cn2C)cn1C; target = 12-mer DNA duplex; assay = DNA binding, UV thermal denaturation; conditions = 2.4 µM, pH 7.0, match base pair T·A, added: DNA duplex 2 µM; measurement = melting temperature; result = 75.2 ± 1.5 °C
SMILES = C[N+](C)(CBr)CCO; target = TMA lyase; assay = TMA production, whole-cell; system = Proteus mirabilis, wild type; measurement = EC50; result = 4.4 nM
SMILES = CC(C)C[C@H](NC(=O)[C@H](CCC(N)=O)NC(=O)[C@H](CCCNC(=N)N)NC(=O)[C@H](CCCNC(=N)N)NC(=O)[C@@H](NC(=O)[C@H](CCCNC(=N)N)NC(=O)[C@@H](NC(=O)[C@H](CO)NC(=O)[C@@H](N)CS)[C@@H](C)O)C(C)C)C(N)=O; target = human Nox1/p47phox/NOXA1; assay = inhibitor, cytochrome c reduction; conditions = 10 µM; measurement = superoxide production; result = no inhibition
SMILES = CC(=O)N[C@@H](CC(N)=O)C(=O)NCC(=O)N[C@@H](C)C(=O)N[C@@H](C)C(N)=O; target = Asn-Gly peptide isomerisation to succinimide; assay = 1H NMR time course; conditions = pH 7.4, 37 °C; measurement = rate constant k1; result = 0.027 h⁻¹
SMILES = COC1CCC(Nc2nc(-c3nccn3C)nc3sc(-c4ccn(C)n4)c(-c4ccccc4)c23)C1 (stereo not shown); target = Ras; assay = Ras-GTP formation, inhibitor, GTP pull-down; system = MIA PaCa-2; conditions = 6 h, added: EGF 15 min; measurement = IC50; result = 1000 to 3000 nM
SMILES = CO[C@@H]1[C@H](O)[C@@H](COP(=O)(O)OP(=O)([S-])OP(=O)(S)OC[C@H]2O[C@@H](n3cnc4c(=O)[nH]c(N)nc43)[C@H](O)[C@@H]2O)O[C@H]1n1c[n+](C)c2c(O)nc(N)nc21 (mixture of isomers); target = Schizosaccharomyces pombe Dcp1/Dcp2; assay = substrate; conditions = 5 to 15 min, RNA capped with compound; measurement = decapped RNA; result = 10 to 30%
SMILES = CN(C)CCCNC(=O)c1cc(NC(=O)c2cc(NC(=O)c3cc(NC(=O)c4nc(NC(=O)[C@H](N)CCNC(=O)c5cc(NC(=O)c6cc(NC(=O)c7nc(NC(=O)c8nccn8C)cn7C)co6)cn5C)cn4C)cn3C)cn2C)cn1C; target = 12-mer DNA duplex; assay = DNA binding, UV thermal denaturation; conditions = 2.4 µM, pH 7.0, match base pair A·T, added: DNA duplex 2 µM; measurement = melting temperature; result = 76.6 ± 1.1 °C
SMILES = CCOC(=O)C(Cc1cccc(O)c1)OC(=O)C=Cc1ccc(O)c(O)c1C=Cc1ccc(O)c(O)c1 (stereo not shown); target = actin with transgelin; assay = negative-stain electron microscopy; conditions = concentration not given; measurement = F-actin amount; result = increased
SMILES = C[C@H](NC(=O)CNC(=O)[C@@H]1CSSC[C@H](NC(=O)[C@H](C)NC(=O)CN)C(=O)N[C@@H](CCCNC(=N)N)C(=O)N[C@@H](CCCNC(=N)N)C(=O)N[C@@H](CCC(=O)O)C(=O)N[C@@H]([C@@H](C)O)C(=O)N[C@@H](C)C(=O)N[C@@H](Cc2c[nH]c3ccccc23)C(=O)N[C@@H](C)C(=O)N1)C(=O)O; target = integrin alpha-v beta-1; assay = cell attachment; system = alpha-v beta-1-expressing cells, peptide coated on plastic; measurement = minimum coating concentration; result = 1 mg/mL
SMILES = CCCCN1C(=O)c2cccc3c(NCCCCCCN4CCOCC4)ccc(c23)C1=O; target = lysosomes; assay = confocal lambda scanning; system = BHK-21; conditions = 0.2 µM, lysosomal micro-polarity; measurement = emission maximum; result = 524 nm
SMILES = COc1cc(CCC(C)=O)ccc1O; target = mAb 6-AT6; assay = antibody binding, indirect competitive ELISA; conditions = added: coating antigen 4-OVA; measurement = IC50; result = > 4 µg/mL
SMILES = NC[C@@H]1O[C@H](O[C@H]2[C@@H](O)[C@H](O[C@@H]3[C@@H](O)[C@H](N)C[C@H](N)[C@H]3O[C@H]3O[C@H](CN)[C@@H](O)[C@H](O)[C@H]3N)O[C@@H]2CO)[C@H](N)[C@@H](O)[C@@H]1O; target = AT-rich DNA; assay = FID; scale = baseline: triplex over duplex; measurement = affinity ratio; result = 2 to 3 orders of magnitude
SMILES = CC(C)c1cnc(-c2cc(Cl)ccc2F)cc1Nc1ccncc1C(=O)NC(CO)CO; target = TGF-β receptor type 1 (human); assay = SMAD2 Ser465/467 phosphorylation, inhibitor; system = human PBMC; conditions = unbound drug, added: TGF-β; measurement = IC50; result = 56.8 ± 7.73 nM
SMILES = C[n+]1c(/C=C/c2ccc(N(c3ccccc3)c3ccccc3)cc2)cc(/C=C2\Sc3ccccc3N2CCCN2CCCC2)c2ccccc21; target = Telo21 G-quadruplex DNA; assay = CD melting; conditions = 5 µM, 60 mM KCl, added: 5 µM G4-DNA; measurement = ΔTm; result = 3.3 °C
SMILES = [64Cu+2].c1ccc(CNCc2ccc(CN3CCCN4CCNCCCN(CC4)CC3)cc2)nc1; target = CXCR4 (human); system = NOD/SCID mice, U87 xenografts, liver; conditions = dose not given, 90 min post-injection, added: 25 mg/kg AMD3465; scale = baseline: non-blocked; measurement = uptake decrease on blocking; result = ~50% and 55%
SMILES = COc1cc2nnn(C(=O)N3COCC3(C)C)c2cc1OC; target = carboxylesterases (rat); assay = inhibitor; system = rat liver microsomes; conditions = 10 µM; scale = baseline: control; measurement = remaining activity; result = 72 ± 5%
SMILES = C=C(CC)C(=O)c1ccc(OCC(=O)NCCCCNC(=O)COc2ccc(C(=O)C(=C)CC)c(Cl)c2Cl)c(Cl)c1Cl; target = glutathione S-transferase, human; assay = enzyme activity; system = CoC1 cell lysate; conditions = 0.2 µM; measurement = inhibition; result = ~25%

Excerpt of the above:
SMILES = CCOC(=O)C(Cc1cccc(O)c1)OC(=O)C=Cc1ccc(O)c(O)c1C=Cc1ccc(O)c(O)c1 (stereo not shown); target = actin with transgelin; assay = negative-stain electron microscopy; conditions = concentration not given; measurement = F-actin amount; result = increased
SMILES = C[C@H](NC(=O)CNC(=O)[C@@H]1CSSC[C@H](NC(=O)[C@H](C)NC(=O)CN)C(=O)N[C@@H](CCCNC(=N)N)C(=O)N[C@@H](CCCNC(=N)N)C(=O)N[C@@H](CCC(=O)O)C(=O)N[C@@H]([C@@H](C)O)C(=O)N[C@@H](C)C(=O)N[C@@H](Cc2c[nH]c3ccccc23)C(=O)N[C@@H](C)C(=O)N1)C(=O)O; target = integrin alpha-v beta-1; assay = cell attachment; system = alpha-v beta-1-expressing cells, peptide coated on plastic; measurement = minimum coating concentration; result = 1 mg/mL
SMILES = CCCCN1C(=O)c2cccc3c(NCCCCCCN4CCOCC4)ccc(c23)C1=O; target = lysosomes; assay = confocal lambda scanning; system = BHK-21; conditions = 0.2 µM, lysosomal micro-polarity; measurement = emission maximum; result = 524 nm
SMILES = COc1cc(CCC(C)=O)ccc1O; target = mAb 6-AT6; assay = antibody binding, indirect competitive ELISA; conditions = added: coating antigen 4-OVA; measurement = IC50; result = > 4 µg/mL
SMILES = NC[C@@H]1O[C@H](O[C@H]2[C@@H](O)[C@H](O[C@@H]3[C@@H](O)[C@H](N)C[C@H](N)[C@H]3O[C@H]3O[C@H](CN)[C@@H](O)[C@H](O)[C@H]3N)O[C@@H]2CO)[C@H](N)[C@@H](O)[C@@H]1O; target = AT-rich DNA; assay = FID; scale = baseline: triplex over duplex; measurement = affinity ratio; result = 2 to 3 orders of magnitude
